Measured values gathered from unrelated publications.
Every numbered part comes from another study and shows a few of its results, in no order.
Sequence of UniProt P43403 (whole entry, looked up): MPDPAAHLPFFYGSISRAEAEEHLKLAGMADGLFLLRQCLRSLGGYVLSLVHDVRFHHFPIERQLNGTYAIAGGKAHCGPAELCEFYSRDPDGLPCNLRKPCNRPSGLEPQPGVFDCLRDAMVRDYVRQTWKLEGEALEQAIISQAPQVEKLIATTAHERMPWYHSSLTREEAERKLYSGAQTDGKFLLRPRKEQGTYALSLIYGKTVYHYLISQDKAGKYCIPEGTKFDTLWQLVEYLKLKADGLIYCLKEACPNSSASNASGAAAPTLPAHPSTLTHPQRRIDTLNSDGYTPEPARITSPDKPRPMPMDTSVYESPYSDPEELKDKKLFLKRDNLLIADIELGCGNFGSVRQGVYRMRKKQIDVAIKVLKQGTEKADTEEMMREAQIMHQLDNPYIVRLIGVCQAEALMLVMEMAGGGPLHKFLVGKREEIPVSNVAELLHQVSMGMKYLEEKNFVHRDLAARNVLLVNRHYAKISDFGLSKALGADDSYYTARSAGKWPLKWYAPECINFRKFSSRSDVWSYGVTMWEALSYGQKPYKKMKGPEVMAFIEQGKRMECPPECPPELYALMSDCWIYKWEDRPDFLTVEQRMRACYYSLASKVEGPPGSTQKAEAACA
Sequence of UniProt P0DMS8 (whole entry, looked up): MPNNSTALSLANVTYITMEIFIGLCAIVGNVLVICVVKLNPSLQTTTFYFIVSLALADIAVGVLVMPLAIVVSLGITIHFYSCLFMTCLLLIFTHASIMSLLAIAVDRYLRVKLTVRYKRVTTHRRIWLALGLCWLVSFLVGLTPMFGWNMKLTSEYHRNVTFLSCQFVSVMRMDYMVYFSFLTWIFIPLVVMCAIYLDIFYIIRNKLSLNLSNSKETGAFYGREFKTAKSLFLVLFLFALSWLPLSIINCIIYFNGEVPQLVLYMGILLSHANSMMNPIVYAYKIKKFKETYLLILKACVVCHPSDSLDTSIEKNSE
Sequence of UniProt O75116 (whole entry, looked up): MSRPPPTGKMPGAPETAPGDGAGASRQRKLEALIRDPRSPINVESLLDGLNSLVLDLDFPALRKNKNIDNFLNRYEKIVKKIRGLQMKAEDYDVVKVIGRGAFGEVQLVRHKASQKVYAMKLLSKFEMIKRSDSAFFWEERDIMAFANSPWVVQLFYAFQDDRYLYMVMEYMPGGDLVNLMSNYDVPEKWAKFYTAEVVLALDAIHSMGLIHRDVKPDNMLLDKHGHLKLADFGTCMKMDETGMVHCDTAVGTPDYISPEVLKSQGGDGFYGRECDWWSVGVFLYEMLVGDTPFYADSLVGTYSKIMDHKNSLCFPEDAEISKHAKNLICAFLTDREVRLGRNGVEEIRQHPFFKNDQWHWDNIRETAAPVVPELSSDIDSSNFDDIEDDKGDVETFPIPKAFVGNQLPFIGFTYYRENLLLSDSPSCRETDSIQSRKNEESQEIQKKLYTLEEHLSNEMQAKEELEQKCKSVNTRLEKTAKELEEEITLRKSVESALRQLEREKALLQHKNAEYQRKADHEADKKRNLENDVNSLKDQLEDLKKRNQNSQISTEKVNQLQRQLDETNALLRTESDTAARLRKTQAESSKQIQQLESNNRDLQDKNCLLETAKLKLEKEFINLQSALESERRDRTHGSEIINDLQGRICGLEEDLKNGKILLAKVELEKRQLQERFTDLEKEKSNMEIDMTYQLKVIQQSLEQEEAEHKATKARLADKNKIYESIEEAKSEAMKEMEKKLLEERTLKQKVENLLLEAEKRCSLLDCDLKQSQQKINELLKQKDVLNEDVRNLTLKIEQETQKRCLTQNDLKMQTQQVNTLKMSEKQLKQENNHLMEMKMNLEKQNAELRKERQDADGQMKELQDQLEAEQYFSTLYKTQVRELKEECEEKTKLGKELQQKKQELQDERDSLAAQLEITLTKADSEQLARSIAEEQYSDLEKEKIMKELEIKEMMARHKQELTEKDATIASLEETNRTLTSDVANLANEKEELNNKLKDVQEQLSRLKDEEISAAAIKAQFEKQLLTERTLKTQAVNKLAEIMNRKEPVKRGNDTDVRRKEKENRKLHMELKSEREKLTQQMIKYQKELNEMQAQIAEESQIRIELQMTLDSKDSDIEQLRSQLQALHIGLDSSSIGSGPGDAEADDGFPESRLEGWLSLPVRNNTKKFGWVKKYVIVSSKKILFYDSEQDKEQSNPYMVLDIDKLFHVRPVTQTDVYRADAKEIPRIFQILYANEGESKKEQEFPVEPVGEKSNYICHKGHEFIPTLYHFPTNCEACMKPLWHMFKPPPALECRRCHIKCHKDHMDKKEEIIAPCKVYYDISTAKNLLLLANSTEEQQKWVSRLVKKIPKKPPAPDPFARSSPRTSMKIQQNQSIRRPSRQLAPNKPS
Sequence of UniProt Q16539 (whole entry, looked up): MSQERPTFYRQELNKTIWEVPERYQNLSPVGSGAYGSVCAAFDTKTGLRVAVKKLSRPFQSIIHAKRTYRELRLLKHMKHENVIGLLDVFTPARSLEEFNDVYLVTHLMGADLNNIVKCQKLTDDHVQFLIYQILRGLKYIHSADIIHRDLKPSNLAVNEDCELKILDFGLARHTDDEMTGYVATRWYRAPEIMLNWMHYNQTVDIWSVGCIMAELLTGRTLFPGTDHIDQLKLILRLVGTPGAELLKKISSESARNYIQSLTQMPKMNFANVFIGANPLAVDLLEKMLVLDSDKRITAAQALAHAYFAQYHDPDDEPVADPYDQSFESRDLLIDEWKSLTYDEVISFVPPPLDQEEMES
Sequence of UniProt P49759 (whole entry, looked up): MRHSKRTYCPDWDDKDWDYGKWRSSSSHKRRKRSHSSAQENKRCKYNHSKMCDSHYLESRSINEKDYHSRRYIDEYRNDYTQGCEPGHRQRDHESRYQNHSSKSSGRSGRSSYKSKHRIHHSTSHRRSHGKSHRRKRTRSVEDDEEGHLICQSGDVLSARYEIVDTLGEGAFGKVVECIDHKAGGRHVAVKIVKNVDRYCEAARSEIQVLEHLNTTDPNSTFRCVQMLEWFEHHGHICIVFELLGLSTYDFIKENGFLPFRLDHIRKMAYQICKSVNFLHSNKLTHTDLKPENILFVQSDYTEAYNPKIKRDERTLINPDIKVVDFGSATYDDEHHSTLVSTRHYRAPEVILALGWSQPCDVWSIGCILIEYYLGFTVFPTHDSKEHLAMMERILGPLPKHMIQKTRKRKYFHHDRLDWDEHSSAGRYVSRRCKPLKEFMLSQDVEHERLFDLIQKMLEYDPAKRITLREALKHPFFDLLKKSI
Sequence of UniProt P06401 (whole entry, looked up): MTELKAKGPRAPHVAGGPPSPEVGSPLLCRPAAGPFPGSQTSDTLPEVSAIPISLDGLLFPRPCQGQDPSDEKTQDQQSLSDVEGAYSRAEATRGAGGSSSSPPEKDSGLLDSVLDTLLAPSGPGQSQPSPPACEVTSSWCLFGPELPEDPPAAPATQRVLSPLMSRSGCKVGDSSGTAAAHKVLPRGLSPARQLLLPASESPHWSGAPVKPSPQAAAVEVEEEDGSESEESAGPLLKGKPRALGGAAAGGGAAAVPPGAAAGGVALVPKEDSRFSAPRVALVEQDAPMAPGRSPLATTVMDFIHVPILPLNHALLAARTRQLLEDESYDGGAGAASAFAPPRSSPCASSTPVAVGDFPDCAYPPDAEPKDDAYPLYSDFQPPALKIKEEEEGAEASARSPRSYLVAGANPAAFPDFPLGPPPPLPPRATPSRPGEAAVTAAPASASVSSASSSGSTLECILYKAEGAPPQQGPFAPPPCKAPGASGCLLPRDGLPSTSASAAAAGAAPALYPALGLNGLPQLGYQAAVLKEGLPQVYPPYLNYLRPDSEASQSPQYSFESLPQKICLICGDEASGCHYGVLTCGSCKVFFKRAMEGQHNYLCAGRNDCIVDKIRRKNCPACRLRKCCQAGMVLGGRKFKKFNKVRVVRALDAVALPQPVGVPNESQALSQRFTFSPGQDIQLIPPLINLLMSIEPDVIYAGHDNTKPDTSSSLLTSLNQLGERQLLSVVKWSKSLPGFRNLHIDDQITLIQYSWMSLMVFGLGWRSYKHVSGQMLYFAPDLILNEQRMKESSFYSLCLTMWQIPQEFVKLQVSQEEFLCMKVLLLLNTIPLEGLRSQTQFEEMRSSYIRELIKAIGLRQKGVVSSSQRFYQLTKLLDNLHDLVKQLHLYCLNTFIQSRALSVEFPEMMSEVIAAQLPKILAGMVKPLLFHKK
Sequence of UniProt P51817 (whole entry, looked up): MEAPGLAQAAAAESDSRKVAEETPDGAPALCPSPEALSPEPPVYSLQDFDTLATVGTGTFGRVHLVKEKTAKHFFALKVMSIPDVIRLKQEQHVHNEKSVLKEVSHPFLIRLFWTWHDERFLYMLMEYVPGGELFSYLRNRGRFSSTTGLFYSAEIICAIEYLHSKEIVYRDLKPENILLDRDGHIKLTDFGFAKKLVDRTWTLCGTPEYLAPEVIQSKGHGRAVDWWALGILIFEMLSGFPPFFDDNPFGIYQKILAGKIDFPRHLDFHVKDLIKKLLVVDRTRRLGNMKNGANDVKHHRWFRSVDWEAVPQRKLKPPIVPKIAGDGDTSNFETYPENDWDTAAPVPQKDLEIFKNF
Sequence of UniProt P42679 (whole entry, looked up): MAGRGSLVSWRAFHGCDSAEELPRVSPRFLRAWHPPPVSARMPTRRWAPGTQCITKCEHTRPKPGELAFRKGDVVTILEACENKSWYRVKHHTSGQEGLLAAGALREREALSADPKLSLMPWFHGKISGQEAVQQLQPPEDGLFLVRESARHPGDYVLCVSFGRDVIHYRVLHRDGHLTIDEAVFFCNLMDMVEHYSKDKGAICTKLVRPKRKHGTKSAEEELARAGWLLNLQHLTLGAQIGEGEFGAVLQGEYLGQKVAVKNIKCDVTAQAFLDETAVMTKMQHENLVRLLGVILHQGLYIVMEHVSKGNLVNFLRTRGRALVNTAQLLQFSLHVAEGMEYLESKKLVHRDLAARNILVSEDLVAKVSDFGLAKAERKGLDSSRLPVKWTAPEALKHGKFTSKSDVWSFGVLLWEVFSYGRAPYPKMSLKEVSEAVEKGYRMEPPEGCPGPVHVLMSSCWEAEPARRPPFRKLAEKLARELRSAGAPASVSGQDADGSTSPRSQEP

Sample 1 — effect on: enzyme activity; action: inhibitor; concentration: 0.5 µM; baseline: control
Structure (SMILES): CCn1cnc2c(Nc3cccc(Cl)c3)nc(N[C@H]3CCCC[C@H]3N)nc21
target | remaining activity [%]
Tyrosine-protein kinase ITK/TSK (ITK, Homo sapiens, UniProt Q08881) | 105
Megakaryocyte-associated tyrosine-protein kinase (MATK, Homo sapiens, UniProt P42679) | 88.3
cAMP-dependent protein kinase catalytic subunit PRKX (PRKX, Homo sapiens, UniProt P51817) | 102
Insulin receptor (INSR, Homo sapiens, UniProt P06213) | 91.3
Proto-oncogene tyrosine-protein kinase Src (SRC, Homo sapiens, UniProt P12931) | 54.7
Cyclin-dependent kinase 3, with cyclin E (CDK3, Homo sapiens, UniProt Q00526) | 49.7
Serine/threonine-protein kinase MRCK alpha (CDC42BPA, Homo sapiens, UniProt Q5VT25) | 93.4

Sample 2 — method: competition with immobilised ligand; concentration: 1 µM
Compound: Cn1cncc1[C@](O)(COc1ccc(C#N)cc1-c1ccc(OC(F)(F)F)cc1)c1ccc(C#N)cc1
target | assay | remaining binding [%]
Dual specificity protein kinase CLK1 (CLK1, Homo sapiens, UniProt P49759) | cell-free assay | 70
Homeodomain-interacting protein kinase 1 (HIPK1, Homo sapiens, UniProt Q86Z02) | cell-free assay | 100
Tyrosine-protein kinase Tec (TEC, Homo sapiens, UniProt P42680) | binding | 93
Serine/threonine-protein kinase TAO1 (TAOK1, Homo sapiens, UniProt Q7L7X3) | cell-free assay | 87
Tyrosine-protein kinase ZAP-70 (ZAP70, Homo sapiens, UniProt P43403) | cell-free assay | 78
Mitogen-activated protein kinase 6 (MAPK6, Homo sapiens, UniProt Q16659) | cell-free assay | 85
Receptor-type tyrosine-protein kinase FLT3 (FLT3, Homo sapiens, UniProt P36888, R834Q) | cell-free assay | 98
Cyclin-dependent kinase-like 1 (CDKL1, Homo sapiens, UniProt Q00532) | cell-free assay | 82
Cyclin-dependent kinase 4 (CDK4, Homo sapiens, UniProt P11802) | cell-free assay | 100
Transient receptor potential cation channel subfamily M member 6 (TRPM6, Homo sapiens, UniProt Q9BX84) | cell-free assay | 100
Cyclin-dependent kinase-like 5 (CDKL5, Homo sapiens, UniProt O76039) | cell-free assay | 100
Glycogen synthase kinase-3 alpha (GSK3A, Homo sapiens, UniProt P49840) | cell-free assay | 62
Cytoplasmic tyrosine-protein kinase BMX (BMX, Homo sapiens, UniProt P51813) | cell-free assay | 75

Sample 3
SMILES: CNC(=O)c1ccc(-c2cnn3ccc(C(=O)N(C)c4ccc(Cl)c(C(=O)OC)c4)cc23)cc1
target | assay | IC50
Tyrosine-protein kinase ZAP-70 (ZAP70, Homo sapiens, UniProt P43403) | enzyme activity, inhibitor | > 30 µM
Phosphatidylinositol 4-kinase beta (PI4KB, Homo sapiens, UniProt Q9UBF8) | enzyme activity, inhibitor, ADP-Glo | 0.745 µM
Ribosomal protein S6 kinase beta-1 (RPS6KB1, Homo sapiens, UniProt P23443) | enzyme activity, inhibitor | > 30 µM
Progesterone receptor (PGR, Homo sapiens, UniProt P06401) | cell-free assay | > 30 µM
Adenosine receptor A3 (ADORA3, Homo sapiens, UniProt P0DMS8) | cell-free assay | > 30 µM
Prostaglandin G/H synthase 2 (PTGS2, Homo sapiens, UniProt P35354) | cell-free assay, inhibitor | > 30 µM
Prothrombin (F2, Homo sapiens, UniProt P00734) | cell-free assay | > 30 µM
Mitogen-activated protein kinase 14 (MAPK14, Homo sapiens, UniProt Q16539) | enzyme activity, inhibitor | > 30 µM
Protein kinase C theta type (PRKCQ, Homo sapiens, UniProt Q04759) | enzyme activity, inhibitor | > 30 µM
Protein kinase C alpha type (PRKCA, Homo sapiens, UniProt P17252) | enzyme activity, inhibitor | > 30 µM
Rho-associated protein kinase 2 (ROCK2, Homo sapiens, UniProt O75116) | enzyme activity, inhibitor | > 30 µM
Fibroblast growth factor receptor 3 (FGFR3, Homo sapiens, UniProt P22607) | enzyme activity, inhibitor | > 30 µM
D(3) dopamine receptor (DRD3, Homo sapiens, UniProt P35462) | cell-free assay | > 30 µM
Tyrosine-protein kinase Lck (LCK, Homo sapiens, UniProt P06239) | enzyme activity, inhibitor | > 30 µM
Serine/threonine-protein kinase pim-1 (PIM1, Homo sapiens, UniProt P11309) | enzyme activity, inhibitor | 3.72 µM
Aurora kinase A (AURKA, Homo sapiens, UniProt O14965) | enzyme activity, inhibitor | > 30 µM

Sample 4 — cell line: Huh-7; concentration: 10 µM; time: 24 h
SMILES | viability [%]
CCCC(C)(COC(N)=O)COC(=O)NC(C)C (stereo not drawn) | 93.8
O=C(CCCN1CCC2(CC1)C(=O)NCN2c1ccccc1)c1ccc(F)cc1 | 68.2
Cc1cc(O)ccc1Cl | 104
N#Cc1nn(-c2c(Cl)cc(C(F)(F)F)cc2Cl)c(N)c1[S+]([O-])C(F)(F)F (stereo not drawn) | 89.6
O=P1(NCCCl)OCCCN1CCCl (stereo not drawn) | 92
O=P1(N(CCCl)CCCl)NCCCO1 (stereo not drawn) | 98.3

For quick reference, copied from above (sample 1):
target | remaining activity [%]
Proto-oncogene tyrosine-protein kinase Src (SRC, Homo sapiens, UniProt P12931) | 54.7
Cyclin-dependent kinase 3, with cyclin E (CDK3, Homo sapiens, UniProt Q00526) | 49.7
Serine/threonine-protein kinase MRCK alpha (CDC42BPA, Homo sapiens, UniProt Q5VT25) | 93.4
